Measurements pooled from the literature.
Compare with care: the assays were run in different laboratories. Numbers after ± are the reported error. In brackets after ≈: the same amount, converted by molar mass.
Chain of UniProt P50052 (whole entry, unmodified, looked up): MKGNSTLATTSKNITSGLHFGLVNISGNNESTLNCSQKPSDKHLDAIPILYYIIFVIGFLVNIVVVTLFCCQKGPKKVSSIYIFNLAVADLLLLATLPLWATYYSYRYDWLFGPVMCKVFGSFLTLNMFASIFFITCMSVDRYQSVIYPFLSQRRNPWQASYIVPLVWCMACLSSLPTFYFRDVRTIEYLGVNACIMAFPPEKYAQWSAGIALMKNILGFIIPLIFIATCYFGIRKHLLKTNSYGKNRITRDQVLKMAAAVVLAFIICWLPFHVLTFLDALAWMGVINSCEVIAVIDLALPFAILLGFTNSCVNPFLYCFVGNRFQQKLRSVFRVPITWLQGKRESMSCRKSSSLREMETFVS
Chain of UniProt Q9CPV9 (whole entry, looked up): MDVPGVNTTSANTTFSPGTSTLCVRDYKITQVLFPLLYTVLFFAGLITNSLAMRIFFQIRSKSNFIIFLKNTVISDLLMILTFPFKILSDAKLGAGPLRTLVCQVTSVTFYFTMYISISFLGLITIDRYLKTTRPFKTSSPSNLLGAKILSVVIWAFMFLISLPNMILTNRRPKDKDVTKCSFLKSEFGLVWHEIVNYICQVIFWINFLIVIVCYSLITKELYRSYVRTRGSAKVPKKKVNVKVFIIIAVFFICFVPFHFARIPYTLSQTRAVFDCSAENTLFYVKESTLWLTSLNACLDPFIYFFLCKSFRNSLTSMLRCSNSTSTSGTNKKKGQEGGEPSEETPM

For CCCC[C@H](NC(=O)CNC(=O)CNC(=O)CN1CCN(CC(=O)O)CCN(CC(=O)O)CC1)C(=O)N[C@H]1CC(=O)NCCCC[C@@H](C(N)=O)NC(=O)[C@H](Cc2c[nH]c3ccccc23)NC(=O)[C@H](CCCNC(=N)N)NC(=O)[C@@H](Cc2ccccc2)NC(=O)[C@H](Cc2c[nH]cn2)NC1=O [copper-64 labelled], the urinary excretion was 91.7 ± 1.57% (C57 mouse female B16/F1 melanoma, urine; intravenous, 0.037 MBq, 2 h).
O=C(NC1CCCCN=CC1=O)OCc1ccccc1 (stereo not drawn) gave a pKa of 6.18 ± 0.07 (25 °C).
For O=C([O-])CN1CCN(CC(=O)[O-])CCN(CC(=O)NCC2CCC(C(=O)NC(Cc3ccc4ccccc4c3)C(=O)NCCCCC(NC(=O)NC(CCC(=O)O)C(=O)O)C(=O)O)CC2)CCN(CC(=O)[O-])CC1.[44Sc+3] (stereo not drawn), the intact complex was 96.7 ± 0.1% (transchelation stability; 0.5 h, 37 °C, added: EDTA 10 mM).
c1ccc(CN2CCOCCOCCN(CCCCCCCCCCCCCCN3CCOCCOCCN(CCCCCCCCCCCCCCN4CCOCCOCCN(Cc5ccccc5)CCOCCOCC4)CCOCCOCC3)CCOCCOCC2)cc1 has an aggregate size of 300 ± 50 nm (dynamic light scattering; water).
For C[C@H](Oc1cc(-c2cnn(C3CCN(CC[18F])CC3)c2)cnc1N)c1c(Cl)ccc(F)c1Cl, the tracer uptake was 3.7 ± 1.2 %ID/cc (PET imaging; nude mouse, liver; iv, 60 min post injection).
Cc1ccc(OCC(=O)N(Cc2cccs2)c2ccn[nH]2)cc1 gave a bioavailability of 0.26% (female Sprague-Dawley rat, plasma; oral, 10 mg/kg, single dose).
With CC1=CC(C)(C)N=C2C=CC(=O)C=C12 the tissue residue was 25.6 ± 9.4 ng/g (LC-MS/MS; laying hens, skin and fat; oral in feed, 50 mg/kg feed ethoxyquin, 56 days).
CCCCC/C=C/C(=O)CCc1ccc(O)c(OC)c1 has an IC50 of over 4 µg/mL (mAb 5-D8; antibody binding, indirect competitive ELISA; added: coating antigen hapten 2-OVA).
CCCc1nc2ccc(N(Cc3ccco3)C(=O)c3ccccc3)cc2c(=O)n1Cc1ccc(-c2ccccc2-c2nnn[nH]2)cc1 gave a Ki of 3.98 nM (AGTR2 (Homo sapiens, UniProt P50052, M214A); ligand displacement, radioligand; cell membranes).
O=C(O)c1cc2cc(O)ccc2n1Cc1ccc(Cl)c(C(F)(F)F)c1 has a serum ALT of 205 U/L (male Wistar Hannover rat; oral, 500 mg/kg single dose).
For COc1ccc([C@@H]2CC(=O)c3c(O)cc(O[C@@H]4O[C@H](CO[C@@H]5O[C@@H](C)[C@H](O)[C@@H](O)[C@H]5O)[C@@H](O)[C@H](O)[C@H]4O)cc3O2)cc1O, the relative error was 9.43% (rat plasma; 15.62 ng/mL, -80 °C, long-term storage; reference: nominal concentration).
For NS(=O)(=O)c1ccc(N2N=C(C(F)(F)F)CC2c2ccc(F)cc2F)cc1 (stereo not drawn), the AUC(0-24h) was 5280 ± 2300 ng·h/mL (Beagle dog, both sexes, plasma; oral, 1 mg/kg, single dose).
For O=C(O)CCC(NP(=O)(O)OCCC[C@@H](NC(=O)CC[C@H](NC(=O)CCCCCNC(=O)c1ccc([18F])cc1)C(=O)O)C(=O)O)C(=O)O (stereo partly drawn), the tracer uptake was 17.2 %ID/g (CWR22Rv1 tumour model; host not given, kidney; 4 h, tumour-bearing).
CC(C)=CCC[C@](C)(O)[C@H]1CC[C@]2(C)[C@@H]1[C@H](O)C[C@@H]1[C@@]3(C)CC[C@H](O)C(C)(C)[C@@H]3CC[C@]12C has a solubility of 15.2 ± 4.87 µg/mL (≈ 33 µM) (PEG 400; 72 h, 25 °C).
CC(C)[C@H](NC(=O)CNC(=O)[C@H](CCC(N)=O)NC(=O)[C@H](C)N)C(=O)O gave an AUC(0-inf) of 271 ng·h/mL (LC-MS/MS; human, plasma; intravenous, 10 mg/kg three times daily, day 1, first dose, 10 min infusion, geometric mean).
With NS(=O)(=O)Nc1ncnc(OCCOc2ncc(Br)cn2)c1-c1ccc(Br)cc1 the Vmax was 195 ± 15 pmol/min/mg (metabolite formation; female Sprague-Dawley rat, liver microsomes; 150 mg/kg daily for 4 weeks).
CN1CCC=C(C(=O)O)C1 gave a formation ratio of about 30 fold (human liver microsomes; 90 min, pH 7.4; reference: compound over guvacine).
CC(C)C[C@H](NC(=O)C[C@H](O)[C@H](CC(C)C)NC(=O)[C@H](Cc1c[nH]cn1)NC(=O)CNC(=O)[C@@H](NC(=O)[C@H](C)NC(=O)[C@H](Cc1c[nH]c2ccccc12)NC(=O)[C@H](CCC(N)=O)NC(=O)[C@@H](Cc1ccccc1)NC(=O)CCNC(=O)CCNC(=O)CN1CCN(CC(=O)O)CCN(CC(=O)O)CCN(CC(=O)O)CC1)C(C)C)C(N)=O [lutetium-177 labelled]: “tumour clearance half-life” 24.4 ± 8.3 h (mouse, PC-3 xenograft; intraperitoneal).
The tissue ratio of CCCC[C@@H]1NC(=O)[C@@H](NC(=O)[C@H](CCC(=O)O)NC(=O)CNC(=O)CN2CCN(CC(=O)O)CCN(CC(=O)O)CCN(CC(=O)O)CC2)CCCCNC(=O)C[C@@H](C(N)=O)NC(=O)[C@H](C(C)C)NC(=O)[C@@H]2CCCN2C(=O)[C@H](CCCNC(=N)N)NC(=O)CNC(=O)[C@H](Cc2c[nH]c3ccccc23)NC(=O)[C@H](CCCNC(=N)N)NC(=O)[C@@H](Cc2ccccc2)NC(=O)[C@H](Cc2c[nH]cn2)NC(=O)[C@H](CCC(=O)O)NC1=O [gallium-67 labelled] is reported as 5.3 (C57 mice, B16/F1 flank melanoma; intravenous, 0.5 h; reference: tumour over skin).
Under “tumour to tissue ratio”, CCCC[C@H](NC(=O)CNC(=O)CNC(=O)CN1CCN(CC(=O)O)CCN(CC(=O)O)CCN(CC(=O)O)CC1)C(=O)N[C@H]1CC(=O)NCCCC[C@@H](C(N)=O)NC(=O)[C@H](Cc2c[nH]c3ccccc23)NC(=O)[C@H](CCCNC(=N)N)NC(=O)[C@@H](Cc2ccccc2)NC(=O)[C@H](Cc2c[nH]cn2)NC1=O [gallium-67 labelled] is recorded as 70 (female C57 mice, B16/F1 melanoma; intravenous, 0.037 MBq, 4 h; reference: tumour over lung).
COc1cc2c(CCNC(C)=O)c[nH]c2cc1OS(=O)(=O)O gave a concentration of 230 ± 110 ng/g (Abcg2 (mouse); FVB/N wild-type male mice, small intestine; oral, 10 mg/kg melatonin, 1 h).
For C[C@]12C[C@H](c3ccc(C4CC4)cc3)C3=C4CCC(=O)C=C4CC[C@H]3[C@@H]1CC[C@@]2(O)C(F)(F)C(F)(F)F, “maximal oral bioavailability” read 61% (rat liver microsomes; 100 % absorption assumed).
With O=C(O)/C=C/c1ccc(NC(=O)C2(NC(=O)c3ccc4c(C5CCCCC5)c5n(c4c3)CCCCNc3ccccc3-5)CCCC2)cc1 the AUC was 3.6 µM·h (rat; dose not given).
For COc1cc2c(cc1OC)CN(CCCCn1ccc3cc(OCC[18F])ccc31)C2, the spleen uptake was 11.3 ± 1.27 %ID/g (male ICR mice; intravenous, 15 min post-injection).
With CC(C)[C@H](NC(=O)[C@@H]1CCCN1C(=O)[C@H](CCCNC(=N)N)NC(=O)[C@H](CS)NC(=O)[C@H](Cc1c[nH]c2ccccc12)NC(=O)[C@H](CCCNC(=N)N)NC(=O)[C@@H](Cc1ccccc1)NC(=O)[C@H](Cc1c[nH]cn1)NC(=O)[C@H](CCC(=O)O)NC(=O)[C@H](CS)NC(=O)[C@H](CS)NC(=O)[C@@H]1CC(=O)N[C@@H](CCCNC(=N)N)C(=O)NCC(=O)N[C@@H](CC(=O)O)C(=O)N[C@H](Cc2ccc(O)cc2)C(=O)N1)C(N)=O [technetium-99m labelled] the tumour-to-tissue ratio was 0.19 (C57 mice B16/F1 melanoma female; iv, 2 h, added: NDP-MSH blockade; reference: tumour over kidneys).
CC(=O)N([O-])CCCCCNC(=O)CCC(=O)N([O-])CCCCCNC(=O)CCC(=O)N([O-])CCCCCN.[89Zr+4] gave an intact complex of 63.5 ± 1.3% (radio-iTLC; aqueous buffer; 1 h, pH 5.0, 37 °C, EDTA challenge, added: 100-fold excess EDTA).
COc1ccc(OC)c(C(=Cc2ccc(O)c(OC)c2)C(=O)NCCc2ccc(O)cc2)c1 — result for “Tmax, second peak”: 3 h (KM mice, plasma; oral, 50 mg/kg).
[64Cu+2].c1ccc(CNCc2ccc(CN3CCCN4CCNCCCN(CC4)CC3)cc2)nc1 has a tissue uptake of 1.42 ± 0.04 %ID/g (CXCR4; NOD/SCID mouse, U87 and U87-stb-CXCR4 xenografts, heart; iv, 90 min, ex vivo, added: AMD3465 25 mg/kg sc before tracer).
For COc1cc(CCC(C)=O)ccc1O, the IC50 was over 4 µg/mL (mAb 5-D8; antibody binding, indirect competitive ELISA; added: coating antigen hapten 1-OVA).
The relative error of CNC(=O)N[C@]1(C)CCC[C@@]2(C)C3CC[C@@]4(C)C[C@]3(CCC21)CC4=O (single isomer, unassigned) is reported as -7.2% (rat plasma; 400 ng/mL, 8 h, room temperature, short-term stability; reference: nominal concentration).
CC(C)(O)c1ncc([S@](N)(=O)=NC(=O)Nc2c3c(cc4c2CCC4)CCC3)s1 has a Cmax of 4520 ng/mL (human, plasma; oral, 300 mg, single dose, fasted, healthy volunteers).
Under “log2 fold change”, O=Cc1c(O)ccc2ccccc12 is recorded as -3.43 (HUVEC; RNA sequencing, measured: GIMAP4; 75 µM, 24 h; reference: DMSO).
For CCc1nc2ccc(N(Cc3ccccc3)C(=O)c3cccs3)cc2c(=O)n1Cc1ccc(-c2ccccc2-c2nn[nH]n2)cc1, the Ki was 9.33 nM (AGTR2 (Homo sapiens, UniProt P50052, I211A); ligand displacement, radioligand; cell membranes).
C[C@H]1Nc2nc(=O)c3[nH]ccc3n2Cc2ccc(Cl)cc21: exposure ratio “not detected” (rat, male, plasma; 125 mg/kg; reference: rat over human 5 mg).
For [64Cu+2].c1cnc(CNCc2ccc(CN3CCCN4CCNCCCN(CC4)CC3)cc2)nc1, the tissue uptake was 79.2 ± 5.73 %ID/g (CXCR4; NOD/SCID mouse, U87 and U87-stb-CXCR4 xenografts, liver; iv, 30 min, ex vivo).
The distribution volume of COC(=O)c1ccc(-c2cn(Cc3cc(Cl)ccc3O[11CH3])nn2)cc1 is reported as 0.516 mL/cm³ (PET, one-tissue compartment model; rhesus monkey, brain Insula; dose not given).
CCCCCCCOc1ccc(CC[C@](N)(CO)COP(=O)(O)O)cc1C(F)(F)F: “dose excreted in urine” under 0.05% (healthy male humans, urine; oral, day 21).
For Oc1cc(F)ccc1Oc1ccccc1, “unbound fraction in plasma” read 0.05 (rapid equilibrium dialysis; mouse plasma; 4 h, 37 °C).
For CN1CCC[C@]1(C)/C=C/S(=O)(=O)NC(=O)Nc1c2c(cc3c1CCC3)CCC2, the AUC(0-inf) was 27100 ng·h/mL (human, plasma; oral, 25 mg, single dose, healthy volunteers).
With C[C@H]1C[C@@H](Oc2cccc(F)n2)CCN1Cc1cnc(N[11C](C)=O)s1 the unchanged parent was about 60% (rhesus monkey, plasma; dose not given, 30 min, baseline).
With Cc1ccccc1/N=N/c1ccc(/N=N/c2c(O)ccc3ccccc23)c(C)c1 the measured concentration was 5.19 µg/L (rat whole blood; 5.0 µg/L, 30 days, -20 °C, long-term storage).
CCCCCCCCCCCC(=O)NCCC(=O)N[C@H](CCCNC(=N)N)C(=O)N[C@H](CCCNC(=N)N)C(=O)N[C@H](CCCNC(=N)N)C(=O)N[C@H](CCCNC(=N)N)C(=O)N[C@H](CCCNC(=N)N)C(=O)N[C@H](CCCNC(=N)N)C(=O)N[C@H](CCCNC(=N)N)C(=O)N[C@H](CCCNC(=N)N)C(=O)N[C@H](CCCNC(=N)N)C(=O)N[C@@H](CCCCNC(=S)Nc1ccc2c(c1)C(=O)OC21c2ccc(O)cc2Oc2cc(O)ccc21)C(N)=O has a retained fluorescence of about 20% (Jurkat; flow cytometry; 10 µM, 48 h, loaded 10 min at 37 °C, then washed; reference: 0 h, higher = more retained).
For N#Cc1cc(C(=O)OCC[18F])c(C(F)(F)F)nc1N1CCN(C(=O)Cc2ccccc2)CC1, the peak SUV was 2.01 ± 0.31 (P2Y purinoceptor 12 (P2ry12, Mus musculus, UniProt Q9CPV9); PET; young mouse, 6 weeks, brain; 11.1 MBq, 1.25 min).
For O=C([O-])CN1CCN(CC(=O)[O-])CCN(CC(=O)NCCc2ccc3c(c2)C2C=CCC2C(c2cc4c(cc2Br)OCO4)N3)CCN(CC(=O)[O-])CC1.[111In+3] (stereo not drawn), the tissue uptake was 0.08 ± 0.02 %ID/g (mouse, Hec50 endometrial tumour, muscle; 4 h post injection).
Cn1c(=O)oc2ccc(-c3ccc(CC(C#N)NC(=O)C4CNCCCO4)c(F)c3)cc21 (stereo not drawn) — result for “subjects with TEAE”: 0% (measured: urinary occult blood positive; human; 80 mg single dose, fasted).

A few entries again:
c1ccc(CN2CCOCCOCCN(CCCCCCCCCCCCCCN3CCOCCOCCN(CCCCCCCCCCCCCCN4CCOCCOCCN(Cc5ccccc5)CCOCCOCC4)CCOCCOCC3)CCOCCOCC2)cc1 has an aggregate size of 300 ± 50 nm (dynamic light scattering; water).
For C[C@H](Oc1cc(-c2cnn(C3CCN(CC[18F])CC3)c2)cnc1N)c1c(Cl)ccc(F)c1Cl, the tracer uptake was 3.7 ± 1.2 %ID/cc (PET imaging; nude mouse, liver; iv, 60 min post injection).
Cc1ccc(OCC(=O)N(Cc2cccs2)c2ccn[nH]2)cc1 gave a bioavailability of 0.26% (female Sprague-Dawley rat, plasma; oral, 10 mg/kg, single dose).
With CC1=CC(C)(C)N=C2C=CC(=O)C=C12 the tissue residue was 25.6 ± 9.4 ng/g (LC-MS/MS; laying hens, skin and fat; oral in feed, 50 mg/kg feed ethoxyquin, 56 days).
CCCCC/C=C/C(=O)CCc1ccc(O)c(OC)c1 has an IC50 of over 4 µg/mL (mAb 5-D8; antibody binding, indirect competitive ELISA; added: coating antigen hapten 2-OVA).
CCCc1nc2ccc(N(Cc3ccco3)C(=O)c3ccccc3)cc2c(=O)n1Cc1ccc(-c2ccccc2-c2nnn[nH]2)cc1 gave a Ki of 3.98 nM (AGTR2 (Homo sapiens, UniProt P50052, M214A); ligand displacement, radioligand; cell membranes).
